{"data": "Experimental data gathered from unrelated publications", "note": "Parts stem from different laboratories: compare values within a part only. “And” joins repeats or separate records; there may be more than shown.", "chain of UniProt P07333 (whole entry, looked up)": "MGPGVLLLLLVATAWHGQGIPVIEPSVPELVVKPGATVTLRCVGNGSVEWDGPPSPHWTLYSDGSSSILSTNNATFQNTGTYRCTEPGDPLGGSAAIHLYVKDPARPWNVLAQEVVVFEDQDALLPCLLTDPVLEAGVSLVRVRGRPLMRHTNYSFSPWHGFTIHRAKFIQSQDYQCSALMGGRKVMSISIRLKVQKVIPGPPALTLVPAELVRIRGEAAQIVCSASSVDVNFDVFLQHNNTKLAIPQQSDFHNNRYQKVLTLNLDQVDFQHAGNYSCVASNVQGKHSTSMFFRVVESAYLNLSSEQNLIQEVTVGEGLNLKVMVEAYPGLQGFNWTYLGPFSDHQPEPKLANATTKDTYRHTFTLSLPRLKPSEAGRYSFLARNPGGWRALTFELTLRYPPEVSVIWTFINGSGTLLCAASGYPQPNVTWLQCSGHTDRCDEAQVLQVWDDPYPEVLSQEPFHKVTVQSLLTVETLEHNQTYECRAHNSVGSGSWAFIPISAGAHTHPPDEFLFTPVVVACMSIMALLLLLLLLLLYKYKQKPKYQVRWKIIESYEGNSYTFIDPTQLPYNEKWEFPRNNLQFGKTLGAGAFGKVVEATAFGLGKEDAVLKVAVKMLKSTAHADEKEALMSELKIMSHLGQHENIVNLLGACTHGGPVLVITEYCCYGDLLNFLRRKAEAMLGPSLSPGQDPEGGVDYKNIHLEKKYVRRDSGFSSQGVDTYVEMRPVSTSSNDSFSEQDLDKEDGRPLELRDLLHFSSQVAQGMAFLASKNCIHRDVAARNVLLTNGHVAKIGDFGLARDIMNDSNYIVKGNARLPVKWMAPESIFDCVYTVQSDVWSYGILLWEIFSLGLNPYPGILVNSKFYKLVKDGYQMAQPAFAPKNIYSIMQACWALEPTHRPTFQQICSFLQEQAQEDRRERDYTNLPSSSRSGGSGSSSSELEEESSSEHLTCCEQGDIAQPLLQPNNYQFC", "chain of UniProt Q9Y6M4 (whole entry, looked up)": "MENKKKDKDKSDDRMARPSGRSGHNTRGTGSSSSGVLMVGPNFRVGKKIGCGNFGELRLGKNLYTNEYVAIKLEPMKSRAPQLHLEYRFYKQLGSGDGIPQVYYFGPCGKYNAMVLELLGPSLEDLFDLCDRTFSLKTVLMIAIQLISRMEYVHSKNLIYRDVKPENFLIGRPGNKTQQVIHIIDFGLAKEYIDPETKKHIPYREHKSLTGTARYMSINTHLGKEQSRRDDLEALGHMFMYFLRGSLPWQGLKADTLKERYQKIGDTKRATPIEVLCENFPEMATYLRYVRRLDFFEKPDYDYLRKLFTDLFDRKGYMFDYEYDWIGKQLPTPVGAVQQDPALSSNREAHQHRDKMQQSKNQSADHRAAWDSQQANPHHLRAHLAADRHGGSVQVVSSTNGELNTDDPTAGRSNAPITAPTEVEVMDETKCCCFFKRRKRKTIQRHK", "chain of UniProt P53778 (whole entry, looked up)": "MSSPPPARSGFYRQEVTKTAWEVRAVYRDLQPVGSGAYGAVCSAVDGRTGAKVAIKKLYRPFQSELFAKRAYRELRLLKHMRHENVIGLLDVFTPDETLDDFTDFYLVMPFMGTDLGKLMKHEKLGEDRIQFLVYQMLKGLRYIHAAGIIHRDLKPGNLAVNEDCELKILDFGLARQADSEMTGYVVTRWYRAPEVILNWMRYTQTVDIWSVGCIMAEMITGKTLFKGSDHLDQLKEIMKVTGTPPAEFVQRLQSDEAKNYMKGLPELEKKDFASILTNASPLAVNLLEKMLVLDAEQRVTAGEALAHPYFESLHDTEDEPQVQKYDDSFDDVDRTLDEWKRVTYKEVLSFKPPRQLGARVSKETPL", "chain of UniProt P07948 (whole entry, looked up)": "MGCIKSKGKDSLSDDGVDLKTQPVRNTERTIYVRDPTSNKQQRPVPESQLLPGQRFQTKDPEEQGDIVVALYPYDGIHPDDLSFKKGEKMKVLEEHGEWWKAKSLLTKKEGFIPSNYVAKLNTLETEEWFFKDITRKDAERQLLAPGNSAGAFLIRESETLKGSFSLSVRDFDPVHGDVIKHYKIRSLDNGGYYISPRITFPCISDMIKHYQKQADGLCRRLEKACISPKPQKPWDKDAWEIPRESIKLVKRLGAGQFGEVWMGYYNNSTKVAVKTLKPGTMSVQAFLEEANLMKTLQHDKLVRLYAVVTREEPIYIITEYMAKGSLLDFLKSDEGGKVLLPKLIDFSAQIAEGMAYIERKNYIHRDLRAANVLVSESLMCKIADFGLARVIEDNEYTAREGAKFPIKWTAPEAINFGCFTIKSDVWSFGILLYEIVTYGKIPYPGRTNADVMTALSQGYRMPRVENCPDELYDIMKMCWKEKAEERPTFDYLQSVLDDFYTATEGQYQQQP"}
{"data": "Series 1", "Structure (SMILES)": "CC#CC(=O)N1CCC[C@H]1c1nc(-c2ccc(C(=O)Nc3ccccn3)cc2)c2c(N)nccn12", "effect on": "enzyme activity", "mode": "inhibitor", "tested at": "1 µM"}
{"target": "cGMP-dependent protein kinase 1 (PRKG1, Homo sapiens, UniProt Q13976)", "inhibition [%]": 1}
{"target": "Macrophage colony-stimulating factor 1 receptor, autoinhibited (CSF1R, Homo sapiens, UniProt P07333)", "inhibition [%]": 0}
{"target": "Tyrosine-protein kinase Fgr (FGR, Homo sapiens, UniProt P09769)", "inhibition [%]": 15}
{"target": "Mitogen-activated protein kinase 12 (MAPK12, Homo sapiens, UniProt P53778)", "inhibition [%]": 34}
{"target": "Ephrin type-A receptor 5 (EPHA5, Homo sapiens, UniProt P54756)", "inhibition [%]": 8}
{"target": "Myosin-IIIa (MYO3A, Homo sapiens, UniProt Q8NEV4)", "inhibition [%]": 12}
{"target": "Tyrosine-protein kinase Lyn (LYN, Homo sapiens, UniProt P07948)", "inhibition [%]": 11}
{"target": "Ephrin type-B receptor 6 (EPHB6, Homo sapiens, UniProt O15197)", "inhibition [%]": 5}
{"data": "Series 2", "target": "DNA polymerase theta, ATPase domain (POLQ, Homo sapiens, UniProt O75417)", "effect on": "enzyme activity", "mode": "inhibitor", "tested at": "77 µM", "baseline": "untreated", "chain of UniProt O75417 (whole entry, unmodified, looked up)": "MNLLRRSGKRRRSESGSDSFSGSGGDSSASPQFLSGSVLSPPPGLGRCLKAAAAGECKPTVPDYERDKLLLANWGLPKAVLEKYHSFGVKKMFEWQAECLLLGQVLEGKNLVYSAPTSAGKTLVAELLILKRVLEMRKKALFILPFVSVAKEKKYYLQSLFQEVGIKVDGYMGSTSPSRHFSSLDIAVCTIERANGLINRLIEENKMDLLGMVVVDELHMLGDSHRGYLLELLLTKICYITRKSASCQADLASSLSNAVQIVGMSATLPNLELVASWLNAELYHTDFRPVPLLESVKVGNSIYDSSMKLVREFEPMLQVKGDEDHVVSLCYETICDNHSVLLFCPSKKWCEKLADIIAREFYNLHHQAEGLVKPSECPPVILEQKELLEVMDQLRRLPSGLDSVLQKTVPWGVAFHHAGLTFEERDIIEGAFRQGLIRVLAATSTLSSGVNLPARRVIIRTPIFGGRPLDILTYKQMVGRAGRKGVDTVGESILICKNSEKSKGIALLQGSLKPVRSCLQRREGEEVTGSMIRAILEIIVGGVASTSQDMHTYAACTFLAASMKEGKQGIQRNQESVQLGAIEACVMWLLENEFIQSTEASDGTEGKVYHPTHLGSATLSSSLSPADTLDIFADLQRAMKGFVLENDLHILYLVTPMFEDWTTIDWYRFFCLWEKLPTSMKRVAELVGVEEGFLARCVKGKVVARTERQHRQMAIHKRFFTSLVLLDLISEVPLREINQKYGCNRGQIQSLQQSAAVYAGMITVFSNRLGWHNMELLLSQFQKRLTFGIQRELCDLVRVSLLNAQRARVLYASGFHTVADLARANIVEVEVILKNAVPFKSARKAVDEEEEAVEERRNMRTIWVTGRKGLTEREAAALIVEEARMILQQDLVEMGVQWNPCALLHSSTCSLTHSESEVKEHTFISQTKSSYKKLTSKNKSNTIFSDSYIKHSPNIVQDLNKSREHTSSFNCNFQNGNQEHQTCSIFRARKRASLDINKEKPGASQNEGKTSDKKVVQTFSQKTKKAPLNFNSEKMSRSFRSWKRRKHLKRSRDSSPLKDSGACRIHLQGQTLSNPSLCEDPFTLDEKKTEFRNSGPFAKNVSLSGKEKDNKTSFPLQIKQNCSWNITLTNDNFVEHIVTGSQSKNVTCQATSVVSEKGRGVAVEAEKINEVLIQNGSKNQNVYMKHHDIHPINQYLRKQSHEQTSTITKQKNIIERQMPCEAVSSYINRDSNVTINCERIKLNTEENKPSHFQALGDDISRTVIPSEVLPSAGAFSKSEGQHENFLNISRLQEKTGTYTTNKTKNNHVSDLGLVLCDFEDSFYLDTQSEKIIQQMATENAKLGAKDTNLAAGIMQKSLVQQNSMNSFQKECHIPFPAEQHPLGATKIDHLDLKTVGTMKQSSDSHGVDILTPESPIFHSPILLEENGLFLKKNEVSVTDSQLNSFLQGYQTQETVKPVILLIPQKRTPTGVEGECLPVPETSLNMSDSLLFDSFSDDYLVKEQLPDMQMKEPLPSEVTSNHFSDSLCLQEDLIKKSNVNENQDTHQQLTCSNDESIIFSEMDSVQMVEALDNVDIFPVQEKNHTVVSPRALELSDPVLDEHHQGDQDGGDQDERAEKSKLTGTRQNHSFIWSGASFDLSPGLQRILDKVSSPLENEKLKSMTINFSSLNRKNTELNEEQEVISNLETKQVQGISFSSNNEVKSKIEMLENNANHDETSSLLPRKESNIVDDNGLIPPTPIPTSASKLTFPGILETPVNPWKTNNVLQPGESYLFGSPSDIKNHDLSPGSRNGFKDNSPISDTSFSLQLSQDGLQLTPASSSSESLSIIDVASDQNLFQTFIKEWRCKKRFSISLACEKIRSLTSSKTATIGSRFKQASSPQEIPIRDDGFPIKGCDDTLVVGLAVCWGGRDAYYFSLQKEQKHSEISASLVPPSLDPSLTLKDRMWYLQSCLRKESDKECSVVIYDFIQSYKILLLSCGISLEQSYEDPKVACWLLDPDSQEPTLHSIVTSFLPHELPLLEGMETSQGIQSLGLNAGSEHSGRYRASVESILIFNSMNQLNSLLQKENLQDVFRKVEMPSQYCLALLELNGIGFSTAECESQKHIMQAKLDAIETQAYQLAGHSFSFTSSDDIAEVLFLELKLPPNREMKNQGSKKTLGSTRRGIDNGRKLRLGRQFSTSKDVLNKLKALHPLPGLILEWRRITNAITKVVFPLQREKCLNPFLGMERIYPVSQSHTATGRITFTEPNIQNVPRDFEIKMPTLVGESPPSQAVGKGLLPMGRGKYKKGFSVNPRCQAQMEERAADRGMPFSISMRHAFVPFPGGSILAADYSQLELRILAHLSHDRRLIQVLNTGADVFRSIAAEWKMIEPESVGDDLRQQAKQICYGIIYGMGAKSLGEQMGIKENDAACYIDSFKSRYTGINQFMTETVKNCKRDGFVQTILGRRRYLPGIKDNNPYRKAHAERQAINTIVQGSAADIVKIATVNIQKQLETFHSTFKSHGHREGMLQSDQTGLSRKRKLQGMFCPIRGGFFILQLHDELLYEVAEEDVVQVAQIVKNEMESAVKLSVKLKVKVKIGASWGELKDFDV"}
{"SMILES": "C=CCOC(Cn1ccnc1)c1ccc(Cl)cc1Cl (stereo not drawn)", "remaining activity": "80.7%"}
{"SMILES": "CC(C)c1cc(C(=O)N2Cc3ccc(CN4CCN(C)CC4)cc3C2)c(O)cc1O", "remaining activity": "90.2%"}
{"SMILES": "COc1ccc(Cl)cc1C(=O)NCCc1ccc(S(=O)(=O)NC(=O)NC2CCCCC2)cc1", "remaining activity": "109% and 99.1% and 92.9%"}
{"SMILES": "O=c1cc(-c2ccccc2)[nH]c2nc(Cl)ccc12", "remaining activity": "99.3%"}
{"SMILES": "NCCCCCCCCCCN", "remaining activity": "104%"}
{"SMILES": "CC(=O)Nc1ccc(OCC(O)CNC(C)C)cc1 (stereo not drawn)", "remaining activity": "105%"}
{"SMILES": "CSc1ccc2c(c1)C(N1CCN(C)CC1)Cc1ccccc1S2 (stereo not drawn)", "remaining activity": "101%"}
{"data": "Series 3", "Compound": "COc1ccc2c(c1)O[C@H](c1ccc(OC)c(OC)c1)C[C@@H]2NC(=O)C1(c2ccc3c(c2)OC(F)(F)O3)CC1", "effect on": "cell-free assay", "technique": "competition with immobilised ligand", "tested at": "1 µM"}
{"target": "Tyrosine-protein kinase ABL1, non-phosphorylated (ABL1, Homo sapiens, UniProt P00519, T315I)", "remaining binding": "93%"}
{"target": "Serine/threonine-protein kinase N2 (PKN2, Homo sapiens, UniProt Q16513)", "remaining binding": "100%"}
{"target": "Ribosomal protein S6 kinase alpha-5, N-terminal kinase domain (RPS6KA5, Homo sapiens, UniProt O75582)", "remaining binding": "91%"}
{"target": "Ribosomal protein S6 kinase alpha-3, N-terminal kinase domain (RPS6KA3, Homo sapiens, UniProt P51812)", "remaining binding": "74%"}
{"target": "Non-receptor tyrosine-protein kinase TYK2, JH1 (TYK2, Homo sapiens, UniProt P29597)", "remaining binding": "85%"}
{"target": "Protein-tyrosine kinase 6 (PTK6, Homo sapiens, UniProt Q13882)", "remaining binding": "100%"}
{"target": "Dual specificity mitogen-activated protein kinase kinase 5 (MAP2K5, Homo sapiens, UniProt Q13163)", "remaining binding": "76%"}
{"target": "Discoidin domain-containing receptor 2 (DDR2, Homo sapiens, UniProt Q16832)", "remaining binding": "94%"}
{"target": "Ephrin type-A receptor 8 (EPHA8, Homo sapiens, UniProt P29322)", "remaining binding": "100%"}
{"target": "Serine/threonine-protein kinase PLK1 (PLK1, Homo sapiens, UniProt P53350)", "remaining binding": "83%"}
{"target": "Cyclin-dependent kinase-like 2 (CDKL2, Homo sapiens, UniProt Q92772)", "remaining binding": "100%"}
{"target": "Mitogen-activated protein kinase kinase kinase 9 (MAP3K9, Homo sapiens, UniProt P80192)", "remaining binding": "93%"}
{"target": "Serine/threonine-protein kinase Chk2 (CHEK2, Homo sapiens, UniProt O96017)", "remaining binding": "100%"}
{"target": "Serine/threonine-protein kinase TAO3 (TAOK3, Homo sapiens, UniProt Q9H2K8)", "remaining binding": "100%"}
{"target": "Epidermal growth factor receptor (EGFR, Homo sapiens, UniProt P00533, T790M)", "remaining binding": "87%"}
{"target": "Epidermal growth factor receptor (EGFR, Homo sapiens, UniProt P00533, L861Q)", "remaining binding": "100%"}
{"data": "Series 4", "Compound": "COc1ccc2[nH]c3c4[nH]c5ccc(OC)cc5c4c4c(c3c2c1)C(=O)NC4=O", "tested at": "1 µM"}
{"target": "Bone morphogenetic protein receptor type-1A (BMPR1A, Homo sapiens, UniProt P36894)", "technique": "competitive binding panel", "baseline": "vehicle", "remaining binding [%]": 100}
{"target": "Serine/threonine-protein kinase 4 (STK4, Homo sapiens, UniProt Q13043)", "technique": "competitive binding panel", "measured": "MST1", "baseline": "vehicle", "remaining binding [%]": 100}
{"target": "Casein kinase II subunit alpha (CSNK2A1, Homo sapiens, UniProt P68400)", "technique": "competitive binding panel", "baseline": "vehicle", "remaining binding [%]": 61}
{"target": "Dual specificity protein kinase CLK3 (CLK3, Homo sapiens, UniProt P49761)", "technique": "competitive binding panel", "baseline": "vehicle", "remaining binding [%]": 79}
{"target": "Serine/threonine-protein kinase 32B (STK32B, Homo sapiens, UniProt Q9NY57)", "technique": "competitive binding panel", "measured": "YANK2", "baseline": "vehicle", "remaining binding [%]": 97}
{"target": "Membrane-associated tyrosine- and threonine-specific cdc2-inhibitory kinase (PKMYT1, Homo sapiens, UniProt Q99640)", "technique": "competitive binding panel", "baseline": "vehicle", "remaining binding [%]": 97}
{"target": "Casein kinase I isoform gamma-3 (CSNK1G3, Homo sapiens, UniProt Q9Y6M4)", "technique": "competitive binding panel", "baseline": "vehicle", "remaining binding [%]": 100}
{"target": "Mitogen-activated protein kinase kinase kinase kinase 4 (MAP4K4, Homo sapiens, UniProt O95819)", "technique": "competitive binding panel", "baseline": "vehicle", "remaining binding [%]": 2.7}
{"target": "Phosphorylase b kinase gamma catalytic chain, skeletal muscle/heart isoform (PHKG1, Homo sapiens, UniProt Q16816)", "technique": "competitive binding panel", "baseline": "vehicle", "remaining binding [%]": 12}
{"target": "Serine/threonine-protein kinase Nek1 (NEK1, Homo sapiens, UniProt Q96PY6)", "technique": "competitive binding panel", "baseline": "vehicle", "remaining binding [%]": 100}
{"target": "Serine/threonine-protein kinase PLK2 (PLK2, Homo sapiens, UniProt Q9NYY3)", "technique": "competitive binding panel", "baseline": "vehicle", "remaining binding [%]": 95}
{"target": "Serine/threonine-protein kinase 16 (STK16, Homo sapiens, UniProt O75716)", "technique": "competitive binding panel", "baseline": "vehicle", "remaining binding [%]": 74}
{"target": "Serine/threonine-protein kinase ICK (CILK1, Homo sapiens, UniProt Q9UPZ9)", "technique": "competitive binding scan", "remaining binding [%]": 89}
{"target": "Serine/threonine-protein kinase D2 (PRKD2, Homo sapiens, UniProt Q9BZL6)", "technique": "competitive binding panel", "baseline": "vehicle", "remaining binding [%]": 62}
{"note": "Repeated from above (series 3):"}
{"target": "Ribosomal protein S6 kinase alpha-3, N-terminal kinase domain (RPS6KA3, Homo sapiens, UniProt P51812)", "remaining binding": "74%"}
{"target": "Serine/threonine-protein kinase PLK1 (PLK1, Homo sapiens, UniProt P53350)", "remaining binding": "83%"}
{"target": "Discoidin domain-containing receptor 2 (DDR2, Homo sapiens, UniProt Q16832)", "remaining binding": "94%"}
{"target": "Epidermal growth factor receptor (EGFR, Homo sapiens, UniProt P00533, T790M)", "remaining binding": "87%"}
{"target": "Serine/threonine-protein kinase TAO3 (TAOK3, Homo sapiens, UniProt Q9H2K8)", "remaining binding": "100%"}
{"target": "Dual specificity mitogen-activated protein kinase kinase 5 (MAP2K5, Homo sapiens, UniProt Q13163)", "remaining binding": "76%"}
